Measurements from different studies.
A part holds a random share of what one study measured. Substitutions count along the parent as printed.

Block 1
Target: Sal-like protein 4, full length isoform B (SALL4, Homo sapiens, UniProt Q9UJQ4-2, residues 1-616)
Method: universal PBM
Molecule type: double-stranded DNA, one strand shown
Medium: in vitro
Tested at: not given
Setting: 8-mer, flanks averaged, mean of replicates
Reading: higher = stronger binding
| Strand | E-score |
| --- | --- |
| AAATGGAG | 0.0781 |
| GCGTCCAC | -0.241 |
| AGATCCCG | -0.138 |
| CTCAGCCA | -0.114 |
| CCAGCTTC | -0.149 |
| ACTGGGTA | -0.0543 |
| AGCGTGCA | -0.0509 |
| TGCCATAA | 0.161 |

Block 2
Target: CCNE1, cyclin fold, Cln2 fusion (human)
Method: yeast growth competition, sequencing
Medium: yeast
Setting: strong parent motif
Reference: not given
Reading: higher = stronger binding
Starting sequence: GMNC docking peptide (human); KNAKRNLSSEFAN
| Change | normalised enrichment score |
| --- | --- |
| R5P | -0.412 |
| N2D | 1.09 |
| N2V | 0.0807 |
| K4C | 2.15 |
| L7P | 0.152 |
| S9K | 1.54 |
| A3F | 1.02 |
| F11Q | 0.439 |
| E10G | 0.381 |

Block 3
Target: RNA binding protein fox-1 homolog 2, RRM domain, GST-SBP tag (RBFOX2, Homo sapiens, UniProt O43251-10, residues 100-194)
Method: RNA Bind-n-Seq
Molecule type: RNA
Medium: in vitro
Tested at: 365 nM
Setting: natural RNA segment, single round, ends assumed
Reference: no-protein control
Reading: higher = stronger binding
Shared flanks, not repeated: GGGAGUUCUACAGUCCGACGAUC … UGGAAUUCUCGGGUGCCAA
Construct (chain): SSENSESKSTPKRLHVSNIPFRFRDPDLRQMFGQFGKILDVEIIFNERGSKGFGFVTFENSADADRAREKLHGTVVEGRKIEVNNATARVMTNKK
| Strand | RBNS enrichment (R) |
| --- | --- |
| AACAGUAUCUUACUUGUUGCCAUUGAAAAAAGAAUCCAACUUUUCACUUUCAAAAAUGGCUAUAUAUAUAUUUUUUUAAAGUCUCACAAACUUGGUUUAUUUUUCUUACA | 0.791 |
| CAAGGAAUAAUUACUUUCACUCUGCUGGCUUAAUCAGUGAAGGAACAUAAAAGGAAAGCUGGCAGUGGGUCUUGGUAAUAUAUGAACUAUAUUAGAGUGCCAGAAAAGGA | 0.717 |
| AGGCCAGGGAAGAGUGAGCUUCACCCUCAUCCCACGCUGUCCUCCUCAACCCACCAUGCUCAUCAUUCUGUCUCAUCCAUCCAUCCAUCCAUCCAUUCAUCGCCAUGUGU | 0.571 |
| CUCGUAGGUAGUCAUGGAAGUCACAGGUAAGUGCAGGAGCUUGAAGACAGGCAAGAGGUCUCUAAGGUGUUCCUUUCCUUUGUCUGAGUGUAUAGUAUUAAGAUGCCUAG | 0.315 |
| UUUUUUCCUCUCCUAUUCCAACACUUCCUGCUGGGAGAUCUCCACGCCUAUUUUCACCAUUCUCAGGCAAAUACUCCAUGGCUGUAGUUUGACGGACUGUUCCAAUCUGC | 0.675 |
| ACCAAGACUGCAGUCAAGAAGGGAGGGUGAGCCUCACGAUCUUGGGUCUCAGGGCCUGACAUAGGGGUCUUAGCUCAGCCAUAUCCCUCUGAGGCACAGGGCGAGCAGGG | 0.288 |
| AGGUCUGUGUGCCCAUCAGCAGGUUCCCAUGGCUGUCACUGCCCACUCAUUUCCACAGUUAGAUACGGAUGUGUUGAUGUAUUUCGUCUAGUUUAUUUGGCUCAGUCCAC | 0.985 |
| UGAGAGUGAGCUGUAGGUGUGCGGGACCGGUACAGAAAGGCGUUCUUCGAGGUGGAUCACAGAGGCUUCUUCAGAUCAGUGCUUGAGUUUGGGGAAUGCGGCCGCAUUCC | 0.793 |

Other studies, line by line
| Substance | target | assay | system | conditions | scale | measurement | result |
| --- | --- | --- | --- | --- | --- | --- | --- |
| PhoQ, residues 284 288 289 292 302 303 QWQEDG | PhoP, residues 12 14 15 18 19 QQAYL (Escherichia coli, UniProt P23836) | Sort-seq, measured: YFP reporter | E. coli | PhoQ-PhoP variant library, with: 10 µM Mg2+ | reference: high Mg2+ state, higher = stronger signaling | fold induction | 18.3 |

For quick reference, copied from above (block 3):
| Strand | RBNS enrichment (R) |
| --- | --- |
| UUUUUUCCUCUCCUAUUCCAACACUUCCUGCUGGGAGAUCUCCACGCCUAUUUUCACCAUUCUCAGGCAAAUACUCCAUGGCUGUAGUUUGACGGACUGUUCCAAUCUGC | 0.675 |
| ACCAAGACUGCAGUCAAGAAGGGAGGGUGAGCCUCACGAUCUUGGGUCUCAGGGCCUGACAUAGGGGUCUUAGCUCAGCCAUAUCCCUCUGAGGCACAGGGCGAGCAGGG | 0.288 |
| AGGUCUGUGUGCCCAUCAGCAGGUUCCCAUGGCUGUCACUGCCCACUCAUUUCCACAGUUAGAUACGGAUGUGUUGAUGUAUUUCGUCUAGUUUAUUUGGCUCAGUCCAC | 0.985 |
| UGAGAGUGAGCUGUAGGUGUGCGGGACCGGUACAGAAAGGCGUUCUUCGAGGUGGAUCACAGAGGCUUCUUCAGAUCAGUGCUUGAGUUUGGGGAAUGCGGCCGCAUUCC | 0.793 |
